# Measured values gathered from unrelated publications.
# Numbered parts are unrelated; each lists some results of a single study.
# Sequence of UniProt Q8TD08 (whole entry, looked up): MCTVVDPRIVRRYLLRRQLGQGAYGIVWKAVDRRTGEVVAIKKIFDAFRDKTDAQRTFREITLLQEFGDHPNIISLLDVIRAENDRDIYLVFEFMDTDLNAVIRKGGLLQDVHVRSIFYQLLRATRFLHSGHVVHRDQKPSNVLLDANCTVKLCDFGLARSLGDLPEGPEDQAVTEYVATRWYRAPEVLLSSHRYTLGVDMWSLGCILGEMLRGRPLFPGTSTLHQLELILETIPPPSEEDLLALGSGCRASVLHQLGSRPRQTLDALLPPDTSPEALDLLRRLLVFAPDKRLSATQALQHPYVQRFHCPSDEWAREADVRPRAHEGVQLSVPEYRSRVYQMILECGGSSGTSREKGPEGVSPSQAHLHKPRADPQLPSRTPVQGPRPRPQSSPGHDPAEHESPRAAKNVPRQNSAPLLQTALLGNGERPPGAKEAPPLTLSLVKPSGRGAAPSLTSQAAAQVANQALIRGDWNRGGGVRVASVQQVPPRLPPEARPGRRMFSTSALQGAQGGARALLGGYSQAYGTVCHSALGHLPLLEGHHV
# Sequence of UniProt O60674 (whole entry, looked up): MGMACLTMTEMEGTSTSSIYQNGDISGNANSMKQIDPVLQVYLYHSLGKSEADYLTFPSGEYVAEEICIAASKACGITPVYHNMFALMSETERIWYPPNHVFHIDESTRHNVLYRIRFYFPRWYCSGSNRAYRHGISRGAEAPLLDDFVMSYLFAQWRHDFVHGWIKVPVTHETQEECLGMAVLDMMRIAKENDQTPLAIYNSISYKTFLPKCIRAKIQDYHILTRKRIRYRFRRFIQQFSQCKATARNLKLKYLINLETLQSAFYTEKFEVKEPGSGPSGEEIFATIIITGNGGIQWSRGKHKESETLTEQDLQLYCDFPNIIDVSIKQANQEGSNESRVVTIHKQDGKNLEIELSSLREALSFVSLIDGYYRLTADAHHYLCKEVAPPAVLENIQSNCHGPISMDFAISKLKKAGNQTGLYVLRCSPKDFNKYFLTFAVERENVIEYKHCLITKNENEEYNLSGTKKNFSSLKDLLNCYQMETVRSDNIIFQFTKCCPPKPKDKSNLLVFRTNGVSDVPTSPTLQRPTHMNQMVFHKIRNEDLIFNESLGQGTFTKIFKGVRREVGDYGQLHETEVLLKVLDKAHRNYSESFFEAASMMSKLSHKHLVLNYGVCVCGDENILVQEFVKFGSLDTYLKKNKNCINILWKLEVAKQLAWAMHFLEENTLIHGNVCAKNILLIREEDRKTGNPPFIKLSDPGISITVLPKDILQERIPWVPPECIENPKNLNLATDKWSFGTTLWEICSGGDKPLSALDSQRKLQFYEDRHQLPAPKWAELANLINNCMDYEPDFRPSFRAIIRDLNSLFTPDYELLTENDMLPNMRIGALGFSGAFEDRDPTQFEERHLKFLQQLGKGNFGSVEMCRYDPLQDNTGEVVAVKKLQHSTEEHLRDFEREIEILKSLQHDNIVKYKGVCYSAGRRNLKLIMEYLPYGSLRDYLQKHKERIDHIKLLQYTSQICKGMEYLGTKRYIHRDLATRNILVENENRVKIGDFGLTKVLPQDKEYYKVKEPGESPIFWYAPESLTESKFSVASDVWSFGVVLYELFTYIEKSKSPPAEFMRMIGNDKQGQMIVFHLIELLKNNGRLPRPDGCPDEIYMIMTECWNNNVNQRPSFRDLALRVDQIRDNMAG
# Sequence of UniProt Q9Y2U5 (whole entry, looked up): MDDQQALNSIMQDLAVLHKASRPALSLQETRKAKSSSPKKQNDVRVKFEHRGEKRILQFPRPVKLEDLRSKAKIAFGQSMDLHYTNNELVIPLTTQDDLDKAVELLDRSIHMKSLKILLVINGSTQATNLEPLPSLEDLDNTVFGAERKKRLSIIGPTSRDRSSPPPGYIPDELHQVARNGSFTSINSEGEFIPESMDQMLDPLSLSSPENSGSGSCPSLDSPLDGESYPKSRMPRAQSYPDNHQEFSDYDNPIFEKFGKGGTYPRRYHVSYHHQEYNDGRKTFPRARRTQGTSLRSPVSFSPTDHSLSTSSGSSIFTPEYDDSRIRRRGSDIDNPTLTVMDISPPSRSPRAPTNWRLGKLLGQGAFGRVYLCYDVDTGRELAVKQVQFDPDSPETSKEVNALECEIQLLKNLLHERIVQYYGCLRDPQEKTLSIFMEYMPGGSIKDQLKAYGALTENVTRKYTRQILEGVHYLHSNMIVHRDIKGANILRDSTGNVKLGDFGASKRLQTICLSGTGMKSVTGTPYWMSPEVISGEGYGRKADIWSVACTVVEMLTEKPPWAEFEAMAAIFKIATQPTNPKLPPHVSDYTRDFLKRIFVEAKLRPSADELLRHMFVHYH
# Sequence of UniProt O75914 (whole entry, looked up): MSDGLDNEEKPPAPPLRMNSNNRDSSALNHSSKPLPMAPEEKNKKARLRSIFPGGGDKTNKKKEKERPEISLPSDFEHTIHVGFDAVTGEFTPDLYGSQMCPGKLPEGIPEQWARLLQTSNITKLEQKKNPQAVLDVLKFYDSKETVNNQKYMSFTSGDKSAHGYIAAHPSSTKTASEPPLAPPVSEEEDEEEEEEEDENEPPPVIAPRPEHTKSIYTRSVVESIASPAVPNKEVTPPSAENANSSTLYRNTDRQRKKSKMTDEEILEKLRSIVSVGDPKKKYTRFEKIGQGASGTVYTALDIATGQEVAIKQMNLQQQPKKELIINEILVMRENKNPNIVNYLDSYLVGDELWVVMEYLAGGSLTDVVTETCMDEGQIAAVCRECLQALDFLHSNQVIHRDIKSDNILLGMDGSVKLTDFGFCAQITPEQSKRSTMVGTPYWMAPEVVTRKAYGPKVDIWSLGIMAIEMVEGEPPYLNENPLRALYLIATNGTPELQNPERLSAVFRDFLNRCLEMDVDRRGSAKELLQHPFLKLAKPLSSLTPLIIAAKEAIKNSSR
# Sequence of UniProt Q14680 (whole entry, looked up): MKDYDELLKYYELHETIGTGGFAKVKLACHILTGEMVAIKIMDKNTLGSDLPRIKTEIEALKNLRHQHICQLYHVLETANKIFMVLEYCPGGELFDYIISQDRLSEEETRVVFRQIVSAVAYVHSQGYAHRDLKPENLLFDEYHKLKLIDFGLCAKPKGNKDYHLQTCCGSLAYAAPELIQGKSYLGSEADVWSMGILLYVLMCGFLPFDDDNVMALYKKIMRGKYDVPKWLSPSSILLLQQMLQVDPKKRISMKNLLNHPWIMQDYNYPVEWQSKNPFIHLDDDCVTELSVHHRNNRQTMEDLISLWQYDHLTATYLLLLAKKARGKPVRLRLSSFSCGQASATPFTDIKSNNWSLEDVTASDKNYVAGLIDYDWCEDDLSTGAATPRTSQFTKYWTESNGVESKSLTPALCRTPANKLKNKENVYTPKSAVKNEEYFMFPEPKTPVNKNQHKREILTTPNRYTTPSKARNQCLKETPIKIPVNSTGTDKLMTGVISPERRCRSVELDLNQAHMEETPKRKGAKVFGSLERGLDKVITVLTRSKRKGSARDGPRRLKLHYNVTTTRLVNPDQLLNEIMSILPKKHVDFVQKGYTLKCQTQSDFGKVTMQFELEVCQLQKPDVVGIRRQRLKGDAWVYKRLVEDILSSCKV
# Sequence of UniProt O15530 (whole entry, looked up): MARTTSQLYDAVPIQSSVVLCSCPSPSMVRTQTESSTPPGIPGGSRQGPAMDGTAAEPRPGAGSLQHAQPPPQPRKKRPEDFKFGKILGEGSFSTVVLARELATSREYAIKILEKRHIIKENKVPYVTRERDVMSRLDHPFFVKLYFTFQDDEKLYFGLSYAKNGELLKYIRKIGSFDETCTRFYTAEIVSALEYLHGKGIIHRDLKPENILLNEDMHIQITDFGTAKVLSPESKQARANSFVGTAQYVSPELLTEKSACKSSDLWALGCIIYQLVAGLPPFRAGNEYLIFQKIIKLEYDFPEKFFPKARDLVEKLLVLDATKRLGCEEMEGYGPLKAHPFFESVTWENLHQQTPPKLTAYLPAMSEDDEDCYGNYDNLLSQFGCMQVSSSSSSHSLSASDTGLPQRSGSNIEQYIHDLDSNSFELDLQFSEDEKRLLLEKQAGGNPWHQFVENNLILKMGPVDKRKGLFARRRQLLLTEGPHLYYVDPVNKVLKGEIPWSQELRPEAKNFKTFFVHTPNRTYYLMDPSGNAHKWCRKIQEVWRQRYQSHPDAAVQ
# Sequence of UniProt Q9BVS4 (whole entry, looked up): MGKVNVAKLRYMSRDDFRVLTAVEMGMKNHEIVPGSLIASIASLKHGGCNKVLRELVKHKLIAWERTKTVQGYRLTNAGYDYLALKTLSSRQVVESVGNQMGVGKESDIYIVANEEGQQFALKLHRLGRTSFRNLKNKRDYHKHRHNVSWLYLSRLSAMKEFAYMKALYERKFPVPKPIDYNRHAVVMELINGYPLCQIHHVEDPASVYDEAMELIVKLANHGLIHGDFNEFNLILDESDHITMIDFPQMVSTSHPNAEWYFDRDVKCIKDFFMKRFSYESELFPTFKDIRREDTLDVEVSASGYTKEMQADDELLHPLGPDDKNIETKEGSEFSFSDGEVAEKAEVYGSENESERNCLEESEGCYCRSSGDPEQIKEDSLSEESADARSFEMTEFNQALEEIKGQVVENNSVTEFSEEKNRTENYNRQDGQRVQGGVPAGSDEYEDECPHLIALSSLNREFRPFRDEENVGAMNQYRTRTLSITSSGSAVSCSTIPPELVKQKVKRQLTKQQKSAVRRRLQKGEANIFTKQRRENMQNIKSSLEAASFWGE
# Sequence of UniProt P53778 (whole entry, looked up): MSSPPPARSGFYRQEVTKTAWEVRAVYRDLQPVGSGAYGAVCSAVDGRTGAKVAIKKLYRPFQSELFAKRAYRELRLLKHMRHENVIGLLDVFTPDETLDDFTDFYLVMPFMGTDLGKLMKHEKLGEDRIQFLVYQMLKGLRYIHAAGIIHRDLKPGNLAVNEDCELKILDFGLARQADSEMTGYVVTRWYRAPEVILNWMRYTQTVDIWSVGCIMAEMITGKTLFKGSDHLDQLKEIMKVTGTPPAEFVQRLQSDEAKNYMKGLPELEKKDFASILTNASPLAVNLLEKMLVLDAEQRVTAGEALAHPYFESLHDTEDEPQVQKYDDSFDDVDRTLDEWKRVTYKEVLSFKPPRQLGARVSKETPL

# Series 1 — host: mouse; sample: microsomes or S9; concentration: 2 µM; time: 0.5 h
SMILES,remaining compound [%]
CC1CC(N(C(=O)Nc2ccccc2)c2ccccc2)c2ccccc2N1C(=O)c1ccco1 (stereo not drawn),1.04
CCC(Oc1ccccc1F)C(=O)Nc1c(C)cccc1C (stereo not drawn),0.877
Cc1c(C(=O)O)sc2[nH]c(=O)n(CC(C)C)c(=O)c12,88.4
COc1cc(Br)c(S(=O)(=O)NC2CCN(C(C)=O)CC2)cc1OC,38.3
COc1cccc(CCN[C@H]2CS(=O)(=O)C[C@@H]2S(=O)(=O)c2ccc(Cl)cc2)c1,0.0946
OC(CN1CCCCCC1)CN(c1ccccc1)c1ccccc1 (stereo not drawn),7.8
COc1cc(/C=C/C(=O)O)cc(S(=O)(=O)N(C)CCO)c1OC,99.6
CCOC(=O)c1ncn2c(N)c(C(N)=O)nnc12,76.3
COc1nccc(CNc2nn(C)cc2Cl)c1F,> 100
N#Cc1cnn(-c2nnc(-c3ccccc3)c(-c3ccccc3)n2)c1N,72.7
COc1ccc(C2OC(=O)CC2C(=O)N2CCN(c3cc(Cl)ccc3C)CC2)cc1OC (stereo not drawn),43.4

# Series 2 — method: competition with immobilised ligand; concentration: 1 µM
# SMILES: Cc1c(NC(=O)c2cc(C(N)=O)nc3cc(F)ccc23)c(C(F)(F)F)nn1Cc1ccc(C#N)cc1
target,test,remaining binding
"MAPK12 (Homo sapiens, UniProt P53778)",cell-free assay,86%
"Tyrosine-protein kinase ABL1, phosphorylated (ABL1, Homo sapiens, UniProt P00519, T315I)",cell-free assay,92%
"TSSK3 (Homo sapiens, UniProt Q96PN8)",cell-free assay,82%
"Ribosomal protein S6 kinase alpha-1, N-terminal kinase domain (RPS6KA1, Homo sapiens, UniProt Q15418)",cell-free assay,100%
"MAPK14 (Homo sapiens, UniProt Q16539)",cell-free assay,91%
"Tyrosine-protein kinase ABL1, phosphorylated (ABL1, Homo sapiens, UniProt P00519, E255K)",binding,76%
"ERBB2 (Homo sapiens, UniProt P04626)",cell-free assay,100%
"TIE1 (Homo sapiens, UniProt P35590)",cell-free assay,81%
"MAP3K2 (Homo sapiens, UniProt Q9Y2U5)",cell-free assay,85%
"TBK1 (Homo sapiens, UniProt Q9UHD2)",cell-free assay,70%
"MTOR (Homo sapiens, UniProt P42345)",cell-free assay,93%
"IRAK4 (Homo sapiens, UniProt Q9NWZ3)",cell-free assay,84%
"STK25 (Homo sapiens, UniProt O00506)",cell-free assay,100%
"MAPK9 (Homo sapiens, UniProt P45984)",cell-free assay,77%
"Ribosomal protein S6 kinase alpha-5, N-terminal kinase domain (RPS6KA5, Homo sapiens, UniProt O75582)",cell-free assay,97%
"PRKD2 (Homo sapiens, UniProt Q9BZL6)",cell-free assay,100%
"CSK (Homo sapiens, UniProt P41240)",cell-free assay,100%
"RIOK2 (Homo sapiens, UniProt Q9BVS4)",cell-free assay,76%
"PDPK1 (Homo sapiens, UniProt O15530)",cell-free assay,73%
"MAPK15 (Homo sapiens, UniProt Q8TD08)",cell-free assay,100%
"WNK2 (Homo sapiens, UniProt Q9Y3S1)",cell-free assay,87%
"PAK3 (Homo sapiens, UniProt O75914)",cell-free assay,76%
"TGFBR2 (Homo sapiens, UniProt P37173)",cell-free assay,100%
"SIK3 (Homo sapiens, UniProt Q9Y2K2)",cell-free assay,81%
"RET (Homo sapiens, UniProt P07949)",cell-free assay,94%

# Series 3 — method: logD(dd/w) and ALogP; setting: JT method
Compound,lipophilic permeability efficiency
CC(C)C[C@@H]1NC(=O)[C@H](C(C)C)NC(=O)[C@@H](CC(C)C)NC(=O)[C@@H](CC(C)C)NC(=O)[C@@H](CCC(=O)N2CCCC2)NC(=O)[C@H](CC(C)C)NC(=O)[C@@H](CC(C)C)NC1=O,2.22
CC(C)C[C@@H]1NC(=O)[C@H](Cc2cscn2)NC(=O)[C@H](C)NC(=O)[C@H](C)NC(=O)[C@@H](CCC(=O)N2CCCC2)NC(=O)[C@H](CC(C)C)NC(=O)[C@@H](CC(C)C)NC1=O,1.87
CC(C)C[C@@H]1NC(=O)[C@H](C)NC(=O)[C@H](CC(C)C)NC(=O)[C@@H](CC(C)C)NC(=O)[C@H](CC(C)C)NC(=O)[C@@H](C)NC(=O)[C@@H](CC(C)C)NC1=O,1.79
CC(C)C[C@@H]1NC(=O)[C@H](CC(C)C)NC(=O)[C@@H](CC(C)C)NC(=O)[C@H](C(C)C)NC(=O)[C@@H](Cc2cscn2)NC(=O)[C@H](Cc2cscn2)NC(=O)[C@H](CCC(=O)N2CCCC2)NC1=O,2.21
CC(C)C[C@@H]1NC(=O)[C@H](C)NC(=O)[C@@H](Cc2cscn2)NC(=O)[C@@H](CC(C)C)NC(=O)[C@H](C)NC(=O)[C@H](CC(C)C)NC(=O)[C@H](CC(C)C)NC1=O,2.37
CC(C)C[C@@H]1NC(=O)[C@H](CC(C)C)NC(=O)[C@@H](C(C)C)NC(=O)[C@@H](C)NC(=O)[C@H](C)NC(=O)[C@@H](CC(C)C)NC(=O)[C@H](C)NC1=O,1.99

# Series 4 — observed: enzyme activity; action: inhibitor; concentration: 0.5 µM; baseline: control
# SMILES: CSc1nc(-c2ccnc(N[C@@H](C)c3ccccc3)c2)c(-c2ccc(F)cc2)[nH]1 (racemic)
target,remaining activity [%]
"JAK2 (Homo sapiens, UniProt O60674)",102
"PAK4 (Homo sapiens, UniProt O96013)",96.4
"MARK1 (Homo sapiens, UniProt Q9P0L2)",95.3
"MELK (Homo sapiens, UniProt Q14680)",94.2
"FES (Homo sapiens, UniProt P07332)",93.8

# Series 5 — organism: Sarcocystis neurona; observed: parasite growth; concentration: 10 µM; setting: secondary screen
Compound,inhibition
NS(=O)(=O)c1cc2c(cc1C(F)(F)F)NCNS2(=O)=O,-28.3%
CCCOc1ccc(C(=O)OCCN(CC)CC)cc1N,-28.1%
Cc1c(OCC(F)(F)F)ccnc1C[S+]([O-])c1nc2ccccc2[nH]1 (stereo not drawn),-193%
C#C[C@]1(O)CC[C@H]2[C@@H]3CCC4=Cc5oncc5C[C@]4(C)[C@H]3CC[C@@]21C,14.2%
CC1=C(C/C=C(\C)CCC[C@H](C)CCC[C@H](C)CCCC(C)C)C(=O)c2ccccc2C1=O,-33.7%
CCC(=O)OCC(=O)[C@@]1(OC(=O)CC)[C@@H](C)C[C@H]2[C@@H]3CCC4=CC(=O)C=C[C@]4(C)[C@@]3(Cl)[C@@H](O)C[C@@]21C,-30%
N[C@@H](C(=O)N[C@@H]1C(=O)N2C(C(=O)O)=C(Cl)CS[C@H]12)c1ccccc1,-44.8%
CC(=O)N1CCN(c2ccc(OCC3COC(Cn4ccnc4)(c4ccc(Cl)cc4Cl)O3)cc2)CC1 (stereo not drawn),-4.5%
CN(C)CCCC1(c2ccc(F)cc2)OCc2cc(C#N)ccc21 (stereo not drawn),-15.3%
CC(C)[N+]1(C)[C@@H]2CC[C@H]1CC(OC(=O)C(CO)c1ccccc1)C2.[Br-] (stereo partly drawn),-23.6%

# Excerpt of the above (series 3):
Compound,lipophilic permeability efficiency
CC(C)C[C@@H]1NC(=O)[C@H](Cc2cscn2)NC(=O)[C@H](C)NC(=O)[C@H](C)NC(=O)[C@@H](CCC(=O)N2CCCC2)NC(=O)[C@H](CC(C)C)NC(=O)[C@@H](CC(C)C)NC1=O,1.87
CC(C)C[C@@H]1NC(=O)[C@H](C(C)C)NC(=O)[C@@H](CC(C)C)NC(=O)[C@@H](CC(C)C)NC(=O)[C@@H](CCC(=O)N2CCCC2)NC(=O)[C@H](CC(C)C)NC(=O)[C@@H](CC(C)C)NC1=O,2.22
CC(C)C[C@@H]1NC(=O)[C@H](CC(C)C)NC(=O)[C@@H](CC(C)C)NC(=O)[C@H](C(C)C)NC(=O)[C@@H](Cc2cscn2)NC(=O)[C@H](Cc2cscn2)NC(=O)[C@H](CCC(=O)N2CCCC2)NC1=O,2.21
CC(C)C[C@@H]1NC(=O)[C@H](CC(C)C)NC(=O)[C@@H](C(C)C)NC(=O)[C@@H](C)NC(=O)[C@H](C)NC(=O)[C@@H](CC(C)C)NC(=O)[C@H](C)NC1=O,1.99
CC(C)C[C@@H]1NC(=O)[C@H](C)NC(=O)[C@H](CC(C)C)NC(=O)[C@@H](CC(C)C)NC(=O)[C@H](CC(C)C)NC(=O)[C@@H](C)NC(=O)[C@@H](CC(C)C)NC1=O,1.79
CC(C)C[C@@H]1NC(=O)[C@H](C)NC(=O)[C@@H](Cc2cscn2)NC(=O)[C@@H](CC(C)C)NC(=O)[C@H](C)NC(=O)[C@H](CC(C)C)NC(=O)[C@H](CC(C)C)NC1=O,2.37
